Measurements gathered from unrelated publications.
Parts stem from different laboratories: compare values within a part only. Numbers after ± are the reported error.
Chain of UniProt Q9HAZ1 (whole entry, looked up): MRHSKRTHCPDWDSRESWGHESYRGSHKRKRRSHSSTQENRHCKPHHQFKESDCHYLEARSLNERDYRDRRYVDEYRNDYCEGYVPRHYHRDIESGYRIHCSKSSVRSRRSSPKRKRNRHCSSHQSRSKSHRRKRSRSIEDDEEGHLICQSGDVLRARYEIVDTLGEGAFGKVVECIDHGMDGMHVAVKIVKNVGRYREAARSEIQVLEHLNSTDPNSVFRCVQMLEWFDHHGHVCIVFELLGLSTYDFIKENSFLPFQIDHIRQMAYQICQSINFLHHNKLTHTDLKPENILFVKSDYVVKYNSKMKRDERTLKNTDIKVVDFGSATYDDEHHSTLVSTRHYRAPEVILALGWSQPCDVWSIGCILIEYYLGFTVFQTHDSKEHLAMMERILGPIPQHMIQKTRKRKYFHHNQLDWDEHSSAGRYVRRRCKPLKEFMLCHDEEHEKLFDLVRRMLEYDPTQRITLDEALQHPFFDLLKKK
Chain of UniProt P07947 (whole entry, looked up): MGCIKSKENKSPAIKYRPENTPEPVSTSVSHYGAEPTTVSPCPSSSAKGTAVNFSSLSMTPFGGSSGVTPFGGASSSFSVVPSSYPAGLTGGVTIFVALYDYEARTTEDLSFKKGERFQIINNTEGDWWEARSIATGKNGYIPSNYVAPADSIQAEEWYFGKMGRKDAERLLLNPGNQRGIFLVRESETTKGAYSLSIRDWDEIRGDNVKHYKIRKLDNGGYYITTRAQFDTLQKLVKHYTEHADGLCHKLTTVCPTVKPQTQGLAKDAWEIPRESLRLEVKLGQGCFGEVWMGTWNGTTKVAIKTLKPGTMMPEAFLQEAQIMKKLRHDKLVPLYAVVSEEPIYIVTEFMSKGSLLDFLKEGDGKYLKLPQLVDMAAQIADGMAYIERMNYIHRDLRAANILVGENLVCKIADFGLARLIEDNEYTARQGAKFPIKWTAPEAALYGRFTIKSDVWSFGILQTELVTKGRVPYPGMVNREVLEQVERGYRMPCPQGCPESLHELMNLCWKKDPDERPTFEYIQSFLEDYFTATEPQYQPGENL
Chain of UniProt Q8N4C8 (whole entry, looked up): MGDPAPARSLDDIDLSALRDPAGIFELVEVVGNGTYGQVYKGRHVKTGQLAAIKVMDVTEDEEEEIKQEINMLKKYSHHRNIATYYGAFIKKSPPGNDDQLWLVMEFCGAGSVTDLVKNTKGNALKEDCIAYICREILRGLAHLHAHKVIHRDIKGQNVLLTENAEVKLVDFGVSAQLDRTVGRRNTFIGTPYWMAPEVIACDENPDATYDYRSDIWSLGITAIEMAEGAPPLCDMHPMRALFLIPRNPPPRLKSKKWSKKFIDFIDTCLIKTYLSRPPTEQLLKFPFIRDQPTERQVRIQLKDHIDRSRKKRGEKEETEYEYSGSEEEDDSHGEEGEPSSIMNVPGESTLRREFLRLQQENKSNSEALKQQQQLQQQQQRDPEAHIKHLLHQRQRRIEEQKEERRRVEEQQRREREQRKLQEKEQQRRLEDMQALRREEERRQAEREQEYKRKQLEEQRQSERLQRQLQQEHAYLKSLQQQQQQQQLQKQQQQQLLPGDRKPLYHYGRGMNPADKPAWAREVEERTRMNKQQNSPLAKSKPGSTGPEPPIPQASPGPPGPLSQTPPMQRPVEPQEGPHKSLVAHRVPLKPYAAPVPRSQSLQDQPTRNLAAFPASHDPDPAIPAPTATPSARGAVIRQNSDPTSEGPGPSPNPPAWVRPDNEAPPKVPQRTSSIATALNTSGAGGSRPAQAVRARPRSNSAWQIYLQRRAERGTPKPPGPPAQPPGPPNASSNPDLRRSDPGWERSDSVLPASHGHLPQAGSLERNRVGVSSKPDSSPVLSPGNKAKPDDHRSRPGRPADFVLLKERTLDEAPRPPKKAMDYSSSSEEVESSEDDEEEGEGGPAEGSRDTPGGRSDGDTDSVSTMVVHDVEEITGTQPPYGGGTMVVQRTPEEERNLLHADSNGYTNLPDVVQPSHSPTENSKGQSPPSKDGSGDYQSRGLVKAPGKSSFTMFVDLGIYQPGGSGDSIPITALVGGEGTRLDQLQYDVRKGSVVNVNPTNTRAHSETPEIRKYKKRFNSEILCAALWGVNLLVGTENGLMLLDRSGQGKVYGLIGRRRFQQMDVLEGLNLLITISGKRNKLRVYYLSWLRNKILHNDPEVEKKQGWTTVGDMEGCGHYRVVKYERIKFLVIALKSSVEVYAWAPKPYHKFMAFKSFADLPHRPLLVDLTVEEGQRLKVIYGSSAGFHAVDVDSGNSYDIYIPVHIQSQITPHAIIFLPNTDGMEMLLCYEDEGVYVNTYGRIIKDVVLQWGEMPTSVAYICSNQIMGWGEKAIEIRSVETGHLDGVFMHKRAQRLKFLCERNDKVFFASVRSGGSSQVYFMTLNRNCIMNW
Chain of UniProt Q9H3Y6 (whole entry, looked up): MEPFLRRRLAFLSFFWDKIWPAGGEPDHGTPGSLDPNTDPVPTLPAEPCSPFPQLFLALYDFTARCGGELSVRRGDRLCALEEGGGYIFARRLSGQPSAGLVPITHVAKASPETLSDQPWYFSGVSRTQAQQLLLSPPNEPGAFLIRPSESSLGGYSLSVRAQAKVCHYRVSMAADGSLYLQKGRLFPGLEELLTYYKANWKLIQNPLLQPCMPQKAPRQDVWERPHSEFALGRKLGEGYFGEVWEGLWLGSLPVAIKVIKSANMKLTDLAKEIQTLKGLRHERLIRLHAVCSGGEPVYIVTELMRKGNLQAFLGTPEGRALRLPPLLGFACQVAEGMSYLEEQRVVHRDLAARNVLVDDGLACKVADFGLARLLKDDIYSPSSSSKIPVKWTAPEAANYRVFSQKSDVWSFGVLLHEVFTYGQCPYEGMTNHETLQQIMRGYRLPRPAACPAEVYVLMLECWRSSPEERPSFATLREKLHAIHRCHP
Chain of UniProt Q8WXR4 (whole entry, looked up): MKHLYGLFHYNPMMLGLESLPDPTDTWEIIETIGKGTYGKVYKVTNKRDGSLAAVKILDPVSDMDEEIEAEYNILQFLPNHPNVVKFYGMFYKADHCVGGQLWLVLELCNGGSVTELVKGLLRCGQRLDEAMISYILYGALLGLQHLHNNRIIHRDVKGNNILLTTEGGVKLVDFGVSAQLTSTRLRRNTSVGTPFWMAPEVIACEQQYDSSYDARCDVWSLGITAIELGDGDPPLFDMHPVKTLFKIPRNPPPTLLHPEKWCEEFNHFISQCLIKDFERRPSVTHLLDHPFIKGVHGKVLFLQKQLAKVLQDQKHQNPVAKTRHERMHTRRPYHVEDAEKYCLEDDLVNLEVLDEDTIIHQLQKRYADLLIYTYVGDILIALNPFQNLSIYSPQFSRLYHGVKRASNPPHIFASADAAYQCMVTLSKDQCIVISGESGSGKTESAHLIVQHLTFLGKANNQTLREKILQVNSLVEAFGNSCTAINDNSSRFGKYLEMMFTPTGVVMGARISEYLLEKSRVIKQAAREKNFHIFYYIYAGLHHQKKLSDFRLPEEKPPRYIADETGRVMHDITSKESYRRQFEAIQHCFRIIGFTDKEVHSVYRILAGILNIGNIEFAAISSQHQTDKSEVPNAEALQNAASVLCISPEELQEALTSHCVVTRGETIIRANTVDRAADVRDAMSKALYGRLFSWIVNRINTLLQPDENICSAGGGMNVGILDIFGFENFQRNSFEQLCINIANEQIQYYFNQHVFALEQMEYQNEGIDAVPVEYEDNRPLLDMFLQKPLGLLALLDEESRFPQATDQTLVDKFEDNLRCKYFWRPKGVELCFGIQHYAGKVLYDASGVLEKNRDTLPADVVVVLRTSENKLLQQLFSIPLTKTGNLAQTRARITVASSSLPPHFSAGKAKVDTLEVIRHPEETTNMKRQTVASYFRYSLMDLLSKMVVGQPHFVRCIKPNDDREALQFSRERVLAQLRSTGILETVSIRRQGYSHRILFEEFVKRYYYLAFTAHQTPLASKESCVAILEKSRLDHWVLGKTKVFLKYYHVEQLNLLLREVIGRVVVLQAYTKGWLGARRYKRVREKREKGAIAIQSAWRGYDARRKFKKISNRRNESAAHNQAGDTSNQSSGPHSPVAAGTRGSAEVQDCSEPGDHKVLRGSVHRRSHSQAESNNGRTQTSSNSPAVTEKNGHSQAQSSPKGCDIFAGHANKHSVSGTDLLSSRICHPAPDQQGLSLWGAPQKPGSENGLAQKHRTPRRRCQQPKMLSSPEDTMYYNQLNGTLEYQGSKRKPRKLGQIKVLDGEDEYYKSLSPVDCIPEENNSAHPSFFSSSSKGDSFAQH
Chain of UniProt Q02750 (whole entry, looked up): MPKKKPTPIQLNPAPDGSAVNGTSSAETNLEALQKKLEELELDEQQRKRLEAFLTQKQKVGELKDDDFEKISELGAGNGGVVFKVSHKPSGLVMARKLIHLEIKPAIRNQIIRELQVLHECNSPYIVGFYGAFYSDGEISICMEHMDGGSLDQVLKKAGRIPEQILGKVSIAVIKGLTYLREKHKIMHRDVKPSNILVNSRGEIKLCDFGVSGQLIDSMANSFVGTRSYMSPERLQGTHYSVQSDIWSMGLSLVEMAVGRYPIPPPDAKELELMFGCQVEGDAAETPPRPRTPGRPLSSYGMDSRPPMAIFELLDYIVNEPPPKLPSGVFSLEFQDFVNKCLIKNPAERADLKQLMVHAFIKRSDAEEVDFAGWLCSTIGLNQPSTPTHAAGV

Set 1 — effect on: cell-free assay; method: competition with immobilised ligand; concentration: 1 µM
SMILES: CCc1ccccc1C(=O)Nc1n[nH]c2c(C)c(F)c(C3C(C#N)=C(C)N(C)C(C)=C3C#N)cc12
For STK4 (Homo sapiens, UniProt Q13043): remaining binding read 98%.
PLK2 (Homo sapiens, UniProt Q9NYY3) — remaining binding: 97%.
The remaining binding was 94% (SRMS (Homo sapiens, UniProt Q9H3Y6)).
CLK4 (Homo sapiens, UniProt Q9HAZ1) — remaining binding: 100%.
It gave 86% for remaining binding (YES1 (Homo sapiens, UniProt P07947)).
It gave 90% for remaining binding (CIT (Homo sapiens, UniProt O14578)).
NTRK2 (Homo sapiens, UniProt Q16620) — remaining binding: 100%.

Set 2 — effect on: enzyme activity; mode: inhibitor; concentration: 0.5 µM; reference: control
SMILES: Cc1cncc2cccc(S(=O)(=O)N3CCCN(C(=O)CN)C[C@@H]3C)c12
NEK3 (Homo sapiens, UniProt P51956) — remaining activity: 91.1%.
For AKT2 (Homo sapiens, UniProt P31751): remaining activity read 97.2%.
It gave 110% for remaining activity (MAPK14 (Homo sapiens, UniProt Q16539)).
It gave 89.2% for remaining activity (Cyclin-dependent kinase 1, with cyclin A (CDK1, Homo sapiens, UniProt P06493)).
It gave 97.7% for remaining activity (TLK2 (Homo sapiens, UniProt Q86UE8)).
For MINK1 (Homo sapiens, UniProt Q8N4C8): remaining activity read 97.2%.
CLK4 (Homo sapiens, UniProt Q9HAZ1) — remaining activity: 105%.
It gave 105% for remaining activity (PAK3 (Homo sapiens, UniProt O75914)).
The remaining activity was 94.9% (MAP2K1 (Homo sapiens, UniProt Q02750)).
For Myosin-IIIb (MYO3B, Homo sapiens, UniProt Q8WXR4): remaining activity read 104%.
PRKG2 (Homo sapiens, UniProt Q13237) — remaining activity: 88.1%.
For ROCK1 (Homo sapiens, UniProt Q13464): remaining activity read 3.44%.
For CDC42BPB (Homo sapiens, UniProt Q9Y5S2): remaining activity read 105%.
The remaining activity was 101% (MAPK11 (Homo sapiens, UniProt Q15759)).

Set 3 — effect on: kinase activity
SMILES: COc1cc(C(=O)N2CCC(N3CCN(C)CC3)CC2)ccc1Nc1ncc2c(n1)N(C)c1ccccc1C(=O)N2C
PHK; 1 µM — remaining activity: 98 ± 3%.
The remaining activity was 94 ± 4% (MARK4; 1 µM).
It gave 46 ± 1% for remaining activity (AMPK; 10 µM).
It gave 95 ± 4% for remaining activity (p38a MAPK; 1 µM).
It gave 94 ± 5% for remaining activity (PIM1; 1 µM).
For CAMKKb; 10 µM: remaining activity read 53 ± 2%.
The remaining activity was 73 ± 3% (CK1; 1 µM).

Set 4 — mode: agonist
Target: Beta-1 adrenergic receptor (ADRB1, Homo sapiens, UniProt P08588)
Chain of UniProt P08588 (whole entry, looked up): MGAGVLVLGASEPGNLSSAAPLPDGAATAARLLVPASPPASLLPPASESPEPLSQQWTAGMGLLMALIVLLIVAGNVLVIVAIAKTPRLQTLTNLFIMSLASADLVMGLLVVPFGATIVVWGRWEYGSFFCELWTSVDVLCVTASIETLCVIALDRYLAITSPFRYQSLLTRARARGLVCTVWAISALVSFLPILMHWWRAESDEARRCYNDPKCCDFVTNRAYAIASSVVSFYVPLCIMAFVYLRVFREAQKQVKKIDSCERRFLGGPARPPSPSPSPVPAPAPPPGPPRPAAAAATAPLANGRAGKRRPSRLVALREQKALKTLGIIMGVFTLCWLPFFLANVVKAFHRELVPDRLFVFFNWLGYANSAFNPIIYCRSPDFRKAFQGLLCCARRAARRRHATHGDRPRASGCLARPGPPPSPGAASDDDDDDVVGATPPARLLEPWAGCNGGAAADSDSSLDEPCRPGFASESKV
`Cc1ccccc1-n1ncc2c(NCC(C)O)ncnc21` (stereo not drawn) gave an EC50 of ≥ 100 µM.
For `C[S+](=O)([O-])Nc1ccc(OC[C@@H](O)CNCCc2ccc(Cl)c(Cl)c2)cc1`, the EC50 was 12.6 µM.
For `OC(COc1ccc(CN2CC(O)C2)cc1)CN1CCCCC1` (stereo not drawn), the EC50 was ≥ 100 µM.
`COc1cc(CN[C@H]2CC[C@H](O)CC2)ccc1OCC(O)CN1CCSCC1` (stereo partly drawn) gave an EC50 of ≥ 100 µM.
For `Cc1noc2c(-c3ccc(N4CCOCC4)cc3)cc(-c3ccccc3)nc12`, the EC50 was ≥ 100 µM.

Some of these lines once more (set 2):
For MINK1 (Homo sapiens, UniProt Q8N4C8): remaining activity read 97.2%.
It gave 89.2% for remaining activity (Cyclin-dependent kinase 1, with cyclin A (CDK1, Homo sapiens, UniProt P06493)).
It gave 105% for remaining activity (PAK3 (Homo sapiens, UniProt O75914)).
PRKG2 (Homo sapiens, UniProt Q13237) — remaining activity: 88.1%.
It gave 110% for remaining activity (MAPK14 (Homo sapiens, UniProt Q16539)).
